Measured values from different studies.
Parts stem from different laboratories: compare values within a part only.
UniProt Q9FKM7, sequence (whole entry, looked up): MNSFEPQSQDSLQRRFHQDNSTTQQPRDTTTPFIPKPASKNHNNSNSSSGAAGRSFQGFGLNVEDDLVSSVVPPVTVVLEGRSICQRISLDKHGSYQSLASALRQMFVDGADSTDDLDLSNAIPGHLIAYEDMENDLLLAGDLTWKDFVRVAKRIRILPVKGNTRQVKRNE
UniProt Q15139, sequence (whole entry, looked up): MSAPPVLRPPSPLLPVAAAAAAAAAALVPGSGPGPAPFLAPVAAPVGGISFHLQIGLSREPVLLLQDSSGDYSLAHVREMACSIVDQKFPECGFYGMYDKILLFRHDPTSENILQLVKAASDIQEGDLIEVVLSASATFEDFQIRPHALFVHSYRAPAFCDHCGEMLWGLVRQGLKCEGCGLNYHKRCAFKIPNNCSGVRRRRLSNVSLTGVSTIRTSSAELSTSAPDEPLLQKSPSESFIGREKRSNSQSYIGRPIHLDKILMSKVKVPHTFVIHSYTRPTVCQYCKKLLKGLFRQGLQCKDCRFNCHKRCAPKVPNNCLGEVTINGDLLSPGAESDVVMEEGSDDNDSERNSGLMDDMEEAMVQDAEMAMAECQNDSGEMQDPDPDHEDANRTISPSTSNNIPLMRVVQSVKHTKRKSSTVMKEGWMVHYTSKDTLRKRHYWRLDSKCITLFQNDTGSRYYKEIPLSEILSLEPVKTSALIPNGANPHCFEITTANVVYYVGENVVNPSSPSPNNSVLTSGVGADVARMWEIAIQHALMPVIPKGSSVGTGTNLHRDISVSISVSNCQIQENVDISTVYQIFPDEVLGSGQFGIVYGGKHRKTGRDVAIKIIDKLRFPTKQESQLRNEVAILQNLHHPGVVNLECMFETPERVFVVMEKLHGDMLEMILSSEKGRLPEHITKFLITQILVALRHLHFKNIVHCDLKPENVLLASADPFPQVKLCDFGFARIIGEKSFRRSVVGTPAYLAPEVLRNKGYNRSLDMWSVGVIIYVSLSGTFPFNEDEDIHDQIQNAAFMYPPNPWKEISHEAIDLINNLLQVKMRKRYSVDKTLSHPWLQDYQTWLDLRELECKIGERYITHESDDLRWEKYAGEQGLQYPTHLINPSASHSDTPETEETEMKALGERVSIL
UniProt P80192, sequence (whole entry, looked up): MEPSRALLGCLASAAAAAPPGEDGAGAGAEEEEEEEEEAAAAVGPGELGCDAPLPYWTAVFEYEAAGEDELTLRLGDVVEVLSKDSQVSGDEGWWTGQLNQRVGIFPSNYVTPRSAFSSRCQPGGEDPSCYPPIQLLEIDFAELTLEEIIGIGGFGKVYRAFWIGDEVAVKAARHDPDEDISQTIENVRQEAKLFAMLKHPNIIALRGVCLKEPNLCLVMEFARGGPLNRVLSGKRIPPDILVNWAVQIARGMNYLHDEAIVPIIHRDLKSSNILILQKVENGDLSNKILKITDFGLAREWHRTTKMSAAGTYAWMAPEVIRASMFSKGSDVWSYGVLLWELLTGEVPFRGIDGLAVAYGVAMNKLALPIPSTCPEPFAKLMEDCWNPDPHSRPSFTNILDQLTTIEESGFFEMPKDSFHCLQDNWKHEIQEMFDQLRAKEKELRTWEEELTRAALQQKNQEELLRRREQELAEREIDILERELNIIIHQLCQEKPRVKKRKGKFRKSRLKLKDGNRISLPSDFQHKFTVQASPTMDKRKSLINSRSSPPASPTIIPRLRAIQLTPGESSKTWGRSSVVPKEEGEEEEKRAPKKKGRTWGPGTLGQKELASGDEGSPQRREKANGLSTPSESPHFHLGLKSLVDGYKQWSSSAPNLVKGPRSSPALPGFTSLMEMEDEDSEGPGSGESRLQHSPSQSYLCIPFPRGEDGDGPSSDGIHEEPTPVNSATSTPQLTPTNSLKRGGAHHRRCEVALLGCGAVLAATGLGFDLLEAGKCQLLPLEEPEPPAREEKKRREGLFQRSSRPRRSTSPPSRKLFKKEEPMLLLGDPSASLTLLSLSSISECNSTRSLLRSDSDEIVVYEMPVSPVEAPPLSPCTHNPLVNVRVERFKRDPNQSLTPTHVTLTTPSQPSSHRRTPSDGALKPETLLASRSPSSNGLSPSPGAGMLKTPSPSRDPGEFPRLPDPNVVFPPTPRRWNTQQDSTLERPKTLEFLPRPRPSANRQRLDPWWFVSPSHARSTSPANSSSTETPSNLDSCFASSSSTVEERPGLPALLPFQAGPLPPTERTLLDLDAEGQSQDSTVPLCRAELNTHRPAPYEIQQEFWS
UniProt Q94JM3, sequence (whole entry, looked up): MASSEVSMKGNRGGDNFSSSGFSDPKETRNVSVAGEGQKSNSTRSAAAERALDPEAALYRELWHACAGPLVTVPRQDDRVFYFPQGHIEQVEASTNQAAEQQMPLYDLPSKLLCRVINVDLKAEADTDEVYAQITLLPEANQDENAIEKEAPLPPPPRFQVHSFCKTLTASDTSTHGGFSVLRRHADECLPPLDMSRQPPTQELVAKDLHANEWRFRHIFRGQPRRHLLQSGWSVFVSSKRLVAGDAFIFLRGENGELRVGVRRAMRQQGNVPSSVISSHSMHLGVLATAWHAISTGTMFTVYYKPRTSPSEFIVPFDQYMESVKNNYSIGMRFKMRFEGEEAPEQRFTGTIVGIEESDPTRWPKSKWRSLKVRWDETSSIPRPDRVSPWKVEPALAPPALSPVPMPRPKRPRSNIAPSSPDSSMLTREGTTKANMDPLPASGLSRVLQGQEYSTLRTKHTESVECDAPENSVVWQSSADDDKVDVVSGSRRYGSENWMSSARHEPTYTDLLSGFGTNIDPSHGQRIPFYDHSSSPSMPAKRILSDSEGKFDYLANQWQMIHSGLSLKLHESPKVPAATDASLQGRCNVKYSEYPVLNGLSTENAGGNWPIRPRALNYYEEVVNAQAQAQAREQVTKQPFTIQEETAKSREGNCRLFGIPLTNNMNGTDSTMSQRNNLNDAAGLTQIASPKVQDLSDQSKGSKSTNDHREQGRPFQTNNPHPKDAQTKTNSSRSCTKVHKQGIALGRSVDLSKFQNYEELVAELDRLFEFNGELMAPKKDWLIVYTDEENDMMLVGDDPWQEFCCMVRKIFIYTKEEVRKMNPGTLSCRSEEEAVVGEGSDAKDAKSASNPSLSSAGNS
UniProt Q9XED8, sequence (whole entry, looked up): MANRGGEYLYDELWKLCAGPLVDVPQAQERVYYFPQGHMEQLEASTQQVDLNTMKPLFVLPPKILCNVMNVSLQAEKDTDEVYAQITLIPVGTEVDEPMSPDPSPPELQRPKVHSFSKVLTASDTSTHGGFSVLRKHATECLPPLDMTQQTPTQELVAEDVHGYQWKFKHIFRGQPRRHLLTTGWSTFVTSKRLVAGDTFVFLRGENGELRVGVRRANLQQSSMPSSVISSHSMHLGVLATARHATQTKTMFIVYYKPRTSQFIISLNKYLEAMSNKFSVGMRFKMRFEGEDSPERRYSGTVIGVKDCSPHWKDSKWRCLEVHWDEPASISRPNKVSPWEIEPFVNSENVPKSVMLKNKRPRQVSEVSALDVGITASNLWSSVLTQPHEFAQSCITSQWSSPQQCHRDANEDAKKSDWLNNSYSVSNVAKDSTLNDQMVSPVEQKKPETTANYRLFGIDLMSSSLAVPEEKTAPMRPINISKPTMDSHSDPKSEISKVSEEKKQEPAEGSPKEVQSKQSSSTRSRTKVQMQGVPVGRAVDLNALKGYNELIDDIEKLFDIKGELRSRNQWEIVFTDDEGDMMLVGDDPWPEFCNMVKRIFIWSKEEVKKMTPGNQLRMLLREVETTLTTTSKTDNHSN
UniProt O75914, sequence (whole entry, looked up): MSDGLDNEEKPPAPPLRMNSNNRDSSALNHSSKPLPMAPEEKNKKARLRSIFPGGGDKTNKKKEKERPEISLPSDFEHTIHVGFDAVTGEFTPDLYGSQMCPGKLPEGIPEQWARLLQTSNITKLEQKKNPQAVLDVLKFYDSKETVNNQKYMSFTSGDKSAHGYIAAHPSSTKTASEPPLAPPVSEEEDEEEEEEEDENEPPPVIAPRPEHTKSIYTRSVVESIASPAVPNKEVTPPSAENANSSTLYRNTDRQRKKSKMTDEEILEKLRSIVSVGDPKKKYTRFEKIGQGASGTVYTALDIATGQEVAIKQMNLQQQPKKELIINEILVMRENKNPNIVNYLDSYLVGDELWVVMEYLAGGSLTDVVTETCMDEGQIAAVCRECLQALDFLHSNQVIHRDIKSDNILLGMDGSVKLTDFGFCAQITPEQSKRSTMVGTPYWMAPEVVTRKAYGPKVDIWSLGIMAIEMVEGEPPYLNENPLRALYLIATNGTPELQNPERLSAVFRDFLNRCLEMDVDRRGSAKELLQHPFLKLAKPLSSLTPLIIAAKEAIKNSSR
UniProt Q9XFM0, sequence (whole entry, looked up): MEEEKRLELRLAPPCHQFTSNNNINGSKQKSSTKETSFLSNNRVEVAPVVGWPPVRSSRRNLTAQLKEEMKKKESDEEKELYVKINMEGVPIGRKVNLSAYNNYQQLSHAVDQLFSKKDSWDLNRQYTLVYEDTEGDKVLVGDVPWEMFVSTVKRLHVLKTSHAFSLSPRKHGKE
UniProt Q9Y2U5, sequence (whole entry, looked up): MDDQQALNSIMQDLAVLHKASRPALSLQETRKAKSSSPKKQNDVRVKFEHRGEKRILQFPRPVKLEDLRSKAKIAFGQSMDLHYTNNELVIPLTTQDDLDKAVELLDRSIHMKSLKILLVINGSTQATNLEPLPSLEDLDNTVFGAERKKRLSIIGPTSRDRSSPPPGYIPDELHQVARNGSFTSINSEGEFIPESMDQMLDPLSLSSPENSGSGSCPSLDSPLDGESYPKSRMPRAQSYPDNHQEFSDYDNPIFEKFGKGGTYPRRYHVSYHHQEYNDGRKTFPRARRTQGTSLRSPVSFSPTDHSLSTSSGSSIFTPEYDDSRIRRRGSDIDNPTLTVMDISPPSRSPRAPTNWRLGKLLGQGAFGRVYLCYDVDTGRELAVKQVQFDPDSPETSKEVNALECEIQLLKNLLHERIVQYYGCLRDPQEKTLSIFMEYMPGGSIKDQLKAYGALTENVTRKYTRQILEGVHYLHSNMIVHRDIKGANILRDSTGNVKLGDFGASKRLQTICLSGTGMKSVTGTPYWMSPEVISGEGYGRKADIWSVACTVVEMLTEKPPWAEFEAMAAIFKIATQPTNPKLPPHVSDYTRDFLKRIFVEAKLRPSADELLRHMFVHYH

Study 1
Target: Serine/threonine-protein kinase Nek7 (NEK7, Homo sapiens, UniProt Q8TDX7)
Observed: enzyme activity
Action: inhibitor
Tested at: 0.5 µM
Reference: control
Target sequence (Q8TDX7 1-302): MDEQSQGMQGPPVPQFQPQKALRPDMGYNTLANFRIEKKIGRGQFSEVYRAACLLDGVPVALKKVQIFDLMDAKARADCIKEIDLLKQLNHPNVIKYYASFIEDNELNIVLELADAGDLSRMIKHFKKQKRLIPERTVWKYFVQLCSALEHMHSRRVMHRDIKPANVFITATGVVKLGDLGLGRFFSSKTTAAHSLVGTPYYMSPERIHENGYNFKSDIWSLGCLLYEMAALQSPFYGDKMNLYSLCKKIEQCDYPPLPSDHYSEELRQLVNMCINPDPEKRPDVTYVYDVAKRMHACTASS
Compound | remaining activity [%]
Cc1nc(-c2ccccc2)c(-c2ccncc2)o1 | 102
C#Cc1cccc(Nc2ncnc3cc(OCCOC)c(OCCOC)cc23)c1 | 97.4
CN(C)c1ccc(C=C2C(=O)Nc3ccccc32)cc1 | 102
CCOC(=O)c1c(C)[nH]c(/C=C2\C(=O)Nc3ccccc32)c1C | 102
OCC(O)CCON=C1C(c2c(O)[nH]c3ccccc23)=Nc2ccccc21 (stereo not shown) | 98.9
CC(C)[C@H](CO)Nc1nc(Nc2cc(N)cc(Cl)c2)c2ncn(C(C)C)c2n1 | 89
COc1ccc(CNC(=O)Nc2ncc([N+](=O)[O-])s2)cc1 | 99.4
COc1cc2nccc(Oc3ccc(NC(=S)NC(=O)c4ccccc4C)cc3)c2cc1OC | 106
Cn1c2ccccc2c2c3c(c4c5ccccc5n(CCC#N)c4c21)CNC3=O | 97
COc1cc2ncnc(Nc3ccc(F)c(Cl)c3)c2cc1OCCCN1CCOCC1 | 96.9
N#CC(C#N)=C(N)/C(C#N)=C/c1ccc(O)cc1 | 98.9
Cc1cccc(-c2[nH]c(C(C)(C)C)nc2-c2ccc3c(c2)OCO3)n1 | 106
O=C1NC(=O)C(c2cn(CCCn3ccnc3)c3ccccc23)=C1Nc1ccccc1 | 102
Cc1ccc(NC(=O)c2ccc(CN3CCN(C)CC3)cc2)cc1Nc1nc(-c2cccnc2)cs1 | 96.3
O=c1c2ccccc2[nH]c(=S)n1CCN1CCC(=C(c2ccc(F)cc2)c2ccc(F)cc2)CC1 | 100
COc1cc2ncnc(Nc3ccc(Oc4ccccc4)cc3)c2cc1OC | 103

Study 2
Compound: Cc1cc(-n2nc(Cc3cc(F)cc(C(F)(F)F)c3)nc2C)ccc1C(N)=O
Observed: cell-free assay
Technique: competition with immobilised ligand
Tested at: 1 µM
target | remaining binding
MAP3K9 (Homo sapiens, UniProt P80192) | 100%
MAPK15 (Homo sapiens, UniProt Q8TD08) | 95%
PRKD1 (Homo sapiens, UniProt Q15139) | 92%
RIOK2 (Homo sapiens, UniProt Q9BVS4) | 100%
IRAK1 (Homo sapiens, UniProt P51617) | 100%
ACVR1 (Homo sapiens, UniProt Q04771) | 100%
MAP3K2 (Homo sapiens, UniProt Q9Y2U5) | 100%
PAK3 (Homo sapiens, UniProt O75914) | 100%
PAK6 (Homo sapiens, UniProt Q9NQU5) | 100%

Study 3
Target: Runt-related transcription factor 1, full length (RUNX1, Homo sapiens, UniProt Q01196-8, residues 1-480)
Technique: protein-binding microarray
Form: hairpin DNA
Sample: in vitro
Tested at: not given
Setting: whole hairpin DNA, median over replicate spots
Reference: not given
Reading: higher = stronger binding
Strand | median fluorescence [a.u.]
GAGGCCTGTTGCGGATGGCCTCCTGGCCATCCGCAACAGGCCTCACACTC | 1970
CTCAGCGCTGTGGGCTGGACTCCTGTCCAGCCCACAGCGCTGAGACACTC (5mC at 38) | 1930
GAGGCCTGTCGCGGTTGGCCTCCTGGCCAACCGCGACAGGCCTCACACTC (5mC at 12 34) | 2240
CTCAGTTCTGTGGGCTGGACTCCTGTCCAGCCCACAGAACTGAGACACTC (5mC at 33) | 1710
GAGGCCCAACCGGAACAGCCTCCTGGCTGTTCCGGTTGGGCCTCACACTC (5mC at 32) | 1740
GAGGCCTGTCGCGGTGGGCCTCCTGGCCCACCGCGACAGGCCTCACACTC (5mC at 29) | 2060
GAGGCCCAACGGCAACAGCCTCCTGGCTGTTGCCGTTGGGCCTCACACTC | 1690
GAGGCCTGCGGTGGTTGGCCTCCTGGCCAACCACCGCAGGCCTCACACTC (5mC at 9 35) | 2260

Study 4
Molecule: B1 (IAA19)
Technique: two-hybrid
Reading: higher = firmer interaction
B1: IAA19 (Arabidopsis thaliana, UniProt O24409); chain MEKEGLGLEITELRLGLPGRDVAEKMMKKRAFTEMNMTSSGSNSDQCESGVVSSGGDAEKVNDSPAAKSQVVGWPPVCSYRKKNSCKEASTTKVGLGYVKVSMDGVPYLRKMDLGSSQGYDDLAFALDKLFGFRGIGVALKDGDNCEYVTIYEDKDGDWMLAGDVPWGMFLESCKRLRIMKRSDATGFGLQPRGVDE
partner | setting | reference | positive tests
ARF2 727-859 (Arabidopsis thaliana, UniProt Q94JM3) |  | out of 4 tests | 0
IAA29 (Arabidopsis thaliana, UniProt Q93WC4) |  | out of 4 tests | 0
ARF14 497-605 (Arabidopsis thaliana, UniProt Q9LQE8) |  | out of 4 tests | 0
ARF9 519-638 (Arabidopsis thaliana, UniProt Q9XED8) | weak activation fusion | out of 2 tests | 0
IAA33 (Arabidopsis thaliana, UniProt Q9FKM7) |  | out of 4 tests | 1
IAA28 (Arabidopsis thaliana, UniProt Q9XFM0) |  | out of 2 tests | 2
ARF7 1030-1164 (Arabidopsis thaliana, UniProt P93022) |  | out of 4 tests | 2

For quick reference, copied from above (study 1):
Compound | remaining activity [%]
N#CC(C#N)=C(N)/C(C#N)=C/c1ccc(O)cc1 | 98.9
Cc1cccc(-c2[nH]c(C(C)(C)C)nc2-c2ccc3c(c2)OCO3)n1 | 106
O=C1NC(=O)C(c2cn(CCCn3ccnc3)c3ccccc23)=C1Nc1ccccc1 | 102
Cc1ccc(NC(=O)c2ccc(CN3CCN(C)CC3)cc2)cc1Nc1nc(-c2cccnc2)cs1 | 96.3
O=c1c2ccccc2[nH]c(=S)n1CCN1CCC(=C(c2ccc(F)cc2)c2ccc(F)cc2)CC1 | 100
COc1cc2ncnc(Nc3ccc(Oc4ccccc4)cc3)c2cc1OC | 103
